Measured values from different studies.
Numbered parts are unrelated; each lists some results of a single study.

Series 1
Target: Replicase polyprotein 1ab, polymerase (rep, Severe acute respiratory syndrome coronavirus 2, UniProt P0DTD1)
Observed: enzyme activity
Action: inhibitor
Concentration: 20 µM
Quantity: inhibition
C[C@@H]1COCCN1c1cc(C2([S@](C)(=N)=O)CC2)nc(-c2cc[nH]c3nccc2-3)n1: -7.68%
CCn1ccnc1CC1COc2ccccc2O1 (stereo not drawn): 3.36%
C=CCc1cc(OC)c(O)c(C(=O)NCCO)c1: -1.29%
Cc1onc(-c2ccccc2)c1C(=O)N[C@@H]1C(=O)N2[C@@H]1SC(C)(C)[C@@H]2C(=O)O: 16%
CC(C)C[C@H](NC(=O)[C@H](CCCCN)NC(=O)[C@H](CCCNC(=N)N)NC(=O)[C@H](C)NC(=O)[C@H](CO)NC(=O)[C@H](CCCCN)NC(=O)[C@H](CCCNC(=N)N)NC(=O)[C@H](C)NC(=O)CNC(=O)[C@@H](NC(=O)[C@H](Cc1ccccc1)NC(=O)CNC(=O)CNC(=O)[C@@H](N)Cc1ccccc1)[C@@H](C)O)C(=O)N[C@@H](C)C(=O)N[C@@H](CC(N)=O)C(=O)N[C@@H](CCC(N)=O)C(=O)O: -2.52%
CC(CC(c1ccccc1)c1ccccc1)NC(C)(C)C (stereo not drawn): -4.18%
O=C(O)C1CSCN1 (stereo not drawn): 3.36%
c1ccc(C2(c3ccccc3)CC2C2=NCCN2)cc1 (stereo not drawn): 3.66%
COc1ccc2c(NC(=O)Nc3cccc(C(F)(F)F)n3)ccnc2c1: 0.71%
O=C1OC2(c3cc(I)c(O)c(I)c3Oc3c2cc(I)c(O)c3I)c2c(Cl)c(Cl)c(Cl)c(Cl)c21: 99.4%
C[C@]12Cc3c[nH]nc3C[C@@H]1CC[C@@H]1[C@@H]2CC[C@@]2(C)[C@H]1CC[C@]2(C)O: 3.01%
CN(C)CCN1C(=O)c2cccc3cc(NC(N)=O)cc(c23)C1=O: -2.39%
CC(=O)[C@H]1CC[C@H]2[C@@H]3CC[C@H]4C[C@H](O)CC[C@]4(C)[C@H]3C(=O)C[C@]12C: 1.83%
CN[C@@H](C)C(=O)N[C@H](C(=O)N1CCC[C@H]1c1nc(C(=O)c2ccc(F)cc2)cs1)C1CCCCC1: 0.99%
Cc1ccc([N+](=O)[O-])cc1S(=O)(=O)N(C)/N=C/c1cnc2ccc(Br)cn12: -7.88%
Cc1ncc([N+](=O)[O-])n1CCO: 12.5%
CCOc1ccc(/N=C(\C)Nc2ccc(OCC)cc2)cc1: 0.36%
CC(C)[C@H](O)C(=O)N[C@@H](C)C(=O)N[C@@H]1C(=O)N(C)CCc2ccccc21: -5.79%
CS(=O)(=O)Nc1ccc(Cc2noc(-c3ccc4[nH]cc(CCN)c4c3)n2)cc1: 7.76%
Cc1c(Cn2c(C)nc3c(C(=O)O)cc(N4CCOCC4)cc32)cccc1C(F)(F)F: -1.51%
COc1cc([C@H]2Oc3cc([C@H]4Oc5cc(O)cc(O)c5C(=O)[C@@H]4O)ccc3O[C@@H]2CO)ccc1O: -9.6%
CCN(CC)C(=O)[C@]1(c2ccccc2)C[C@@H]1CN (racemic): -13.6%
COc1cc(NC(=O)c2cccc(-n3cc(NC(=O)Nc4cccc(C)c4)cn3)c2)cc(OC)c1OC: 0.99%
NCCCS(=O)(=O)O: 45.6%
CCOC(=O)[C@@H](N)Cc1ccc(O)c(O)c1: -1.44%

Series 2
Target: RING finger protein unkempt homolog, zinc fingers 1-6, GST-SBP tag (UNK, Homo sapiens, UniProt Q9C0B0, residues 30-357)
Sequence of UniProt Q9C0B0 (30-357, looked up): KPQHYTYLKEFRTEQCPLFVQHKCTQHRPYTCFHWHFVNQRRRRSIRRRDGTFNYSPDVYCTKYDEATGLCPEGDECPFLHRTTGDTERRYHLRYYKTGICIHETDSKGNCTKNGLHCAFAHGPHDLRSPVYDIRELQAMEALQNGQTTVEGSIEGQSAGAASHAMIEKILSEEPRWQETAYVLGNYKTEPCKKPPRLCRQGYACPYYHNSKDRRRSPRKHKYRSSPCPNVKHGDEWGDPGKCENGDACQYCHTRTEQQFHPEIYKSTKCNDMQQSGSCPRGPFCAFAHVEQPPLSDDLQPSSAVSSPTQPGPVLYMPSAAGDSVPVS
Technique: RNA Bind-n-Seq
Molecule type: RNA
Matrix: in vitro
Concentration: not given
Notes: RNA with constant flanks, human-mouse chimeric sites, ends assumed
Baseline: input RNA pool
Direction: higher = stronger binding
Quantity: bound/input enrichment
All sequences stand within: GGGAGUUCUACAGUCCGACGAUC … CAACAGAGGAUUGAGCAUCA
CAACAGAGUCUAGGAUGGGUUCAUUACAUGAUUCAUGAGCCAGAACCACAUAUUCUUCUCUUUAGACGACCUCUUCCAAAAGAUCAACAAAAAUGAAGUGCAGCUGGGAUCAUCUAAUCU: 0.379 ratio
CUCAGAGAUGUGGCAUAUCAAUAUGUGAAAAAGGGGGCUCGUAUAUUUGUGGAAGGGAAAGUGGACUAUGGCGAGUACAUGGAUAAAAACAAUGUGAGGCGGCAAGCAACAACAAUCAUA: 0.353 ratio
UGGCGCCUGCGCUCCCCACUCGUGUUUUUAAGUGUAUUUUUAUAAGAUACAUGUAUUUACAAUUGAGUUUUUGAUUAAUAAUGCUGAAAUGCUACUGGAGAUUAUGAAAAAAUGUUAAAU: 0.254 ratio
UCAGGAACUCAGACAAACAUGAAUGUAAAUGAAGUCAUUAGCAACAGAGCAAUUGAAAUGUUAGGAGGUGAACUUGGCAGCAAGAAGCCUGUGCACCCCAAUGAUCAUGUUAACAAAAGC: 0.189 ratio
UUUCUACUGCAGCAAACCAUGCUACGAAUUAAGGAUCCUAAGAAGUCCCUGGAUUUUUAUACGAGGGUUCUUGGACUGACCCUCCUGCAGAAGCUUGAUUUUCCCAUUAUGAAGUUCUCG: 0.225 ratio
CCCCAAUACCAUUUGCAGGUCUGGAACUGCACUCUCUUUUUUAAAAAACAUGUAUACAUUUUAGGGCUGUAGAUUUAUUUUCCUGGUUUUGUUUUUCUUGCUUAUUCUUGAGCACAAGAA: 2.73 ratio
CCCUCCCGGGCCACCCAGCCCGCCCAAGCUCCCCGCCGAGAUCCAGGUUUCUUCUUAUUUCAUAGCAAAUAAGAAAAAUGUUCUACGCACAUUUUGUCCUCAGUAAACGAGGGCCUCUGG: 0.586 ratio

Series 3
Target: Protein C-ets-1 (ETS1, Homo sapiens, UniProt P14921, residues 1-441, Y397A, full length assumed)
Technique: protein-binding microarray
Molecule type: double-stranded DNA, one strand shown
Matrix: in vitro
Concentration: not given
Notes: k-mer, scored over probes, only values ≥0.25
Direction: higher = stronger binding
Quantity: E-score
Construct (chain): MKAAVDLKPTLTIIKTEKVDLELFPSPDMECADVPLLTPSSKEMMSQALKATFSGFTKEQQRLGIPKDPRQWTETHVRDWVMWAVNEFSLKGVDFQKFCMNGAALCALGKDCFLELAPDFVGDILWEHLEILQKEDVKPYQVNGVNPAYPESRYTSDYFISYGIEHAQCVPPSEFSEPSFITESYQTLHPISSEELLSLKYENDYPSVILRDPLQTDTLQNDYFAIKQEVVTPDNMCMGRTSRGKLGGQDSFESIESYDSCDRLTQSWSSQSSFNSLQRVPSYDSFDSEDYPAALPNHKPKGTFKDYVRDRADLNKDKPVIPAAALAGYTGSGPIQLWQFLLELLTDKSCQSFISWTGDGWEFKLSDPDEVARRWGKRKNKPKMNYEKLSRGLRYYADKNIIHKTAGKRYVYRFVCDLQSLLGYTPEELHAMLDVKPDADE
ATTTTGCC: 0.262
CGACGGGC: 0.251
TGTTGCAA: 0.269
CAGTGTAC: 0.276
CCTCCCCA: 0.375

Series 4
Cell line: HEK-293T
Observed: pseudovirus infection
Technique: FDA-approved drug library screen
Organism: VSV pseudotyped with SARS-CoV-2 spike
Concentration: 10 µM
Time: 16 h
Baseline: vehicle-treated
Quantity: GFP-positive cells
Cc1nc(-c2ccc(OCC(C)C)c(C#N)c2)sc1C(=O)O: 74%
CCOC(=O)CC(SP(=S)(OC)OC)C(=O)OCC (stereo not drawn): 122%
CC[C@H]1OC(=O)[C@H](C)[C@@H](O[C@H]2C[C@@](C)(OC)[C@@H](O)[C@H](C)O2)[C@H](C)[C@@H](O[C@@H]2O[C@H](C)C[C@H](N(C)C)[C@H]2O)[C@](C)(OC)C[C@@H](C)C(=O)[C@H](C)[C@@H](O)[C@]1(C)O: 106%
O=C(NC[C@H]1CN(c2ccc(N3CCOCC3=O)cc2)C(=O)O1)c1ccc(Cl)s1: 85.7%
CCC(C)n1ncn(-c2ccc(N3CCN(c4ccc(OCC5COC(Cn6cncn6)(c6ccc(Cl)cc6Cl)O5)cc4)CC3)cc2)c1=O (stereo not drawn): 86.2%

Series 5
Target: Replicase polyprotein 1ab, main protease (rep, Severe acute respiratory syndrome coronavirus 2, UniProt P0DTD1)
Observed: enzyme activity
Action: inhibitor
Concentration: 20 µM
Notes: hit confirmation
Quantity: inhibition
CC1=C(O)C(=O)[C@@H]2O[C@@H]2C1=O: 42%
CN1CCN2c3c(cccc31)[C@@H]1CN(CCCC(=O)c3ccc(F)cc3)CC[C@@H]12: 1.8%
CCN(CC)c1ccc(C(=C2C=CC(=[N+](CC)CC)C=C2)c2ccccc2)cc1: 86.9%
CCCCOc1ccc(C(=O)CCN2CCCCC2)cc1: 33.4%

Series 6
Target: Centromere-binding protein 1, full length, N-terminal tag (CBF1, Saccharomyces cerevisiae, UniProt P17106, residues 1-351)
Sequence of UniProt P17106 (whole entry, looked up): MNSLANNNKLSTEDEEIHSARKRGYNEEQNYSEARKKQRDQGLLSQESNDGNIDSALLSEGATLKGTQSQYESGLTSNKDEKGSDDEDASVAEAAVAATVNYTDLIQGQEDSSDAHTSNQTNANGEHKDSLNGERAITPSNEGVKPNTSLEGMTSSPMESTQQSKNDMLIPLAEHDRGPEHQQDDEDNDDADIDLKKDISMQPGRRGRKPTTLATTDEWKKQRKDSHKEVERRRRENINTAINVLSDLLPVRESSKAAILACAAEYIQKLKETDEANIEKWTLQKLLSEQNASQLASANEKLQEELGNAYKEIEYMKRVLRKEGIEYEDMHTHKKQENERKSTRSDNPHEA
Technique: protein-binding microarray
Molecule type: double-stranded DNA, one strand shown
Matrix: in vitro
Concentration: 0.8 µM
Notes: whole 60-bp probe, no competitor
Direction: higher = stronger binding
Quantity: fluorescence intensity
All sequences stand within: … GTCTTGATTCGCTTGACGCTGCTG
GAAACAGCCTTTTCAGAGGTGATGAGCAATCTCTAG: 533 a.u.
GAAGAATAAAGATATCACGTATACGGGAGAGATTAG: 573 a.u.
GAACATAATGTCCCTCATGACCCATCTCTGCCGTAG: 627 a.u.
GAAAACAGAGGTATAAACCACATGCCGATTGTTTAG: 581 a.u.
GAAATTATGTATTCTTGCGTGCATCTGCAAATCTAG: 538 a.u.
CTAGGCACACTTTAACATGTGCATATATGTGTATTC: 669 a.u.
CTAGGCCTGTTTCCTGATGTACCATCCTCCTTATTC: 475 a.u.
GAAAGCAGAAATATGGACGTGATTCTGAGTTTATAG: 569 a.u.

Repeated from above (series 5):
CC1=C(O)C(=O)[C@@H]2O[C@@H]2C1=O: 42%
CN1CCN2c3c(cccc31)[C@@H]1CN(CCCC(=O)c3ccc(F)cc3)CC[C@@H]12: 1.8%
CCN(CC)c1ccc(C(=C2C=CC(=[N+](CC)CC)C=C2)c2ccccc2)cc1: 86.9%
CCCCOc1ccc(C(=O)CCN2CCCCC2)cc1: 33.4%
